Published values of several laboratories.
Protocols differ between the studies behind these lines. Values joined by “and” are separate records of one study, mostly repeats; a detail may differ. ± gives the spread as reported.
Target: Mitogen-activated protein kinase 3 (MAPK3, Homo sapiens, UniProt P27361)
Chain of UniProt P27361 (whole entry, looked up): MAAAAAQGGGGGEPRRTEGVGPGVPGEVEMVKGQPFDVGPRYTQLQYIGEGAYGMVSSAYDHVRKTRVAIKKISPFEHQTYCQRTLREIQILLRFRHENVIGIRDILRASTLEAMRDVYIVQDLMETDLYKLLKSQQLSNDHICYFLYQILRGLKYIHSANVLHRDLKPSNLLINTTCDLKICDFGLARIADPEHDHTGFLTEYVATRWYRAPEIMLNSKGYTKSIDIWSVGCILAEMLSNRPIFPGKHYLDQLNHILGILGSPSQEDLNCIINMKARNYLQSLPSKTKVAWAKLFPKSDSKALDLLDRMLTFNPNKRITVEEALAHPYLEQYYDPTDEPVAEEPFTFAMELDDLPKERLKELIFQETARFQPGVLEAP

Nc1[nH]nc2nnc(-c3c(-c4ccccc4)nn4ccccc34)cc12
kinase activity (ADP-Glo; 10.5 nM, added: MBP substrate): 93.2% and 118% and 77.4%

O=C1NC(=O)/C(=C/c2ccc(-c3ccc(F)cc3O)o2)S1
remaining activity (enzyme activity; 10 µM): 85%

c1cnc2ccc(Nc3nc(NC4CC4)c4nc[nH]c4n3)cc2c1
remaining activity (kinase activity, inhibitor, SelectScreen kinase profiling; 1 µM; reference: control): 78%

CNc1ncc2c(/C=C/C(=O)N3CCC(OC)CC3)nn(Cc3cccc(C(F)(F)F)c3)c2n1
remaining activity (kinase activity, inhibitor; 1 µM; reference: untreated control): 104%

[2H]c1cc(C)c(NC(=O)c2cnc(Nc3cc(N4CCCCC4)nc(C)n3)s2)c(Cl)c1
inhibition (0.01 µM): < 30%

C=CC(=O)N1CCC[C@@H](n2nc(-c3ccc(Oc4ccccc4)cc3)c3c(N)ncnc32)C1
remaining activity (10 µM): 22.6%

COc1ccc(F)cc1C(=O)NCc1ccc(-c2nn([C@@H](C)C(F)(F)F)c(N)c2C(N)=O)cc1
remaining activity (kinase activity, inhibitor, HotSpot radiometric; 100 nM, added: ATP 10 µM): 91.5 ± 0.4%

CNc1cc(Oc2cc(C(=O)Nc3cc(N4CCN(C)CC4)cc(C(F)(F)F)c3)ccc2C)ncn1
inhibition (Huh-7; 1 µM): -51.7%

CC#CC(=O)N1CCC[C@H]1c1nc(-c2ccc(C(=O)Nc3ccccn3)cc2)c2c(N)nccn12
remaining activity (kinase activity, inhibitor, HotSpot radiometric; 100 nM, added: ATP 10 µM): 102.4 ± 0.6%

C=CC(=O)N1CCC(COCC(=O)N2CCN(c3nc(-c4cnc(N)nc4C(F)F)nc(N4CCOC[C@@H]4C)n3)CC2)CC1
remaining binding (KINOMEscan; 1 µM): 100%

For quick reference, copied from above:
CNc1ncc2c(/C=C/C(=O)N3CCC(OC)CC3)nn(Cc3cccc(C(F)(F)F)c3)c2n1
remaining activity (kinase activity, inhibitor; 1 µM; reference: untreated control): 104%
